# Published values pooled from the literature.
# Lines come from different studies, so protocols differ.
# Technique: steady-state kinetics
# B1: UGT3A2 A344T (Homo sapiens, UniProt Q3SY77); chain AKILTISTVGGSHYLLMDRVSQILQDHGHNVTMLNHKRGPFMPDFKKEEKSYQVISWLAPEDHQREFKKSFDFFLEETLGGRGKFENLLNVLEYLALQCSHFLNRKDIMDSLKNENFDMVIVETFDYCPFLIAEKLGKPFVAILSTSFGSLEFGLPIPLSYVPVFRSLLTDHMDFWGRVKNFLMFFSFCRRQQHMQSTFDNTIKEHFTEGSRPVLSHLLLKAELWFINSDFAFDFARPLLPNTVYVGGLMEKPIKPVPQDLENFIAKFGDSGFVLVTLGSMVNTCQNPEIFKEMNNAFAHLPQGVIWKCQCSHWPKDVHLATNVKIVDWLPQSDLLAHPSIRLFVTHGGQNSIMEAIQHGVPMVGIPLFGDQPENMVRVEAKKFGVSIQLKKLKAETLALKMKQIMEDKRYKSAAVAASVILRSHPLSPTQRLVGWIDHVLQTGGATHLKPYVFQQPWHEQYLLDVFVFLLGLTLGTLWLCGKLLGMAVWWLRGARKVKET
# B2: protein (UniProt A0A4Y6I1D9); chain MTLDEKPRKFDGLDIEGVAFAASVTALGAAKPLALGGAGDRGLEINGNYIKFTAIGIYVEDGIIPHLSPKLRGKTVEELCEKELLFEEVISAPFEKLVRVVFLVPLTGIQYSEKVLERISVQSLFTDIKEEHKQQFLEIFKGESFPPRSSVILSFSKEGLKVAFAKGDDVPSKAVGTIEDATFADAVLATIIWKEGVSPAAKVSLAERLSKCL
# B3: enzyme C48S (Schizosaccharomyces pombe, UniProt Q9Y7P0); chain MFTGLVEAIGVVKDVQGTIDNGFAMKIEAPQILDDCHTGDSIAVNGTSLTVTDFDRYHFTVGIAPESLRLTNLGQCKAGDPVNLERAVLSSTRMGGHFVQGHVDTVAEIVEKKQDGEAIDFTFRPRDPFVLKYIVYKGYIALDGTSLTITHVDDSTFSIMMISYTQSKVIMAKKNVGDLVNVEVDQIGKYTEKLVEAHIADWIKKTQA
# B4: enzyme D382E (Arabidopsis thaliana, UniProt O82390); chain MNARALLCSSNIHSLYTSNRPPEKTSSSRSLRNLKPSPKSLRVWIYPRNRSSVFRVLVRSSDKSESSNSYYVEGDKVSGNNDVVSDSPSSIVLPWWEEFPKRWVIVLLCFSAFLLCNMDRVNMSIAILPMSAEYGWNPATVGLIQSSFFWGYLLTQIAGGIWADTVGGKRVLGFGVIWWSIATILTPVAAKLGLPYLLVVRAFMGVGEGVAMPAMNNILSKWVPVQERSRSLALVYSGMYLGSVTGLAFSPFLIHQFGWPSVFYSFGSLGTVWLTLWLTKAESSPLEDPTLLPEERKLIADNCASKEPVKSIPWRLILSKPPVWALISCHFCHNWGTFILLTWMPTYYHQVLKFNLMESGLLSVFPWMTMAISANAGGWIAETLVSRGFSVTNVRKIMQTIGFLGPAFFLTQLKHIDSPTMAVLCMACSQGTDAFSQSGLYSNHQDIAPRYSGVLLGLSNTAGVLAGVLGTAATGHILQHGSWDDVFTISVGLYLVGTVIWNLFSTGEKIID
# B5: enzyme (Brachypodium distachyon, UniProt I1HY48); chain MGSIASEERTVTGWAARDADGHLSPYTYTLRKTGPEDVLVKVLYCGICHTDIHQAKNHLGASKYPMVPGHEVVGEVVEVGGEVSKYSAGDVVGVGVIVGCCRECRPCKASVEQYCNKRIWSYNDVYTDGRPTQGGFSSAMVVDQKFVVRIPAGLAPEQAAPLLCAGVTVYSPLKHFGLMSPGLRGGILGLGGVGHMGVKVAKSMGHHVTVISSSGKKRAEAMDDLGADAYLVSSDADQMAAAADSLDYVIDTVPVKHPLEPYLSLLKMDGKLVLMGVIGEPLSFVSPMVMLGRKSITGSFIGSMEETEEVLKFCVEKGLTSQIEVVKMDYLNEALERLERNDVRYRFVVDVAGSKIEDAA
# B6: COMT (Canis lupus familiaris, UniProt Q60F99); chain MGDTKEQRILRHVLQHAVAGDPQSVLEAIDTYCSQKEWAMNVGDKKGQILDAVVREQRPSVLLELGAYCGYSAVRMARLLEPGARLITIELNPDFAAITQQMLDFAGLQDRVTILTGASQDTIPELKKKHDVDTLDMVFLDHWKDRYLPDTLLLEECGLLQKGTVLLADNVICPGTPEFLAYVRGNNRFECTHFPSYLEYSKRVDGLEKVVYKGPGSPTQP
# B7: protein (Rheum palmatum, UniProt A0A7L9A2S6); chain MKKTELVFLPAPAPGHLVSTVEFSKRLIARDARLTVTILVISSPFSRGAQTNPSPGIRYVTLPQVDVPQHLMKDSIEHTISVYIASHAPHVRDAVAALQTESTVHVAGLFLDMFCTPMIDVANELGLPSYVFFCSSAGFLGLLLHLPVHSQPRFDETGLDVLIPSFQNPVPTRVLPRFGFNELGYKSFMDHAKRFGETKGIIINTYAELEPYALKSLLDAYDTAPVYAVGPVLDLRSQVHMPCDAAERARIMGWLDKQPDSSVVFLCFGSGGSFSEHQIREISKGLSQSGQRFLWSVRKPPTGGLVKPTEYTETELRSVLGDEFWSLLDEGERGVVCGWAPQVEVLGHKSVGAFVSHCGWNSTLESLWFGKPMVTWPLYAEQQMNAFELVKELGIAVELTLDYRLHSSEVVEAREVERAVRRVMDENNPVRYKVKEMAEVCRATLVEGGSSFVCVDRLISGFLGEIN
# B8: UGT1A9 (Homo sapiens, UniProt O60656); chain GKLLVVPMDGSHWFTMRSVVEKLILRGHEVVVVMPEVSWQLGRSLNCTVKTYSTSYTLEDLDREFKAFAHAQWKAQVRSIYSLLMGSYNDIFDLFFSNCRSLFKDKKLVEYLKESSFDAVFLDPFDNCGLIVAKYFSLPSVVFARGILCHYLEEGAQCPAPLSYVPRILLGFSDAMTFKERVRNHIMHLEEHLLCHRFFKNALEIASEILQTPVTEYDLYSHTSIWLLRTDFVLDYPKPVMPNMIFIGGINCHQGKPLPMEFEAYINASGEHGIVVFSLGSMVSEIPEKKAMAIADALGKIPQTVLWRYTGTRPSNLANNTILVKWLPQNDLLGHPMTRAFITHAGSHGVYESICNGVPMVMMPLFGDQMDNAKRMETKGAGVTLNVLEMTSEDLENALKAVINDKSYKENIMRLSSLHKDRPVEPLDLAVFWVEFVMRHKGAPHLRPAAHDLTWYQYHSLDVIGFLLAVVLTVAFITFKCCAYGYRKCLGKKGRVKKAHKSKTH
# B9: aromatic amino acid decarboxylase (Bacillus atrophaeus, UniProt I0DFJ0); chain MSENLQLSAEEMRQLGYQAVDLIIDHMNHLKSKPVSETIDSDILRNKLTESIPENGSDPKELLHFLNRNVFNQITHVDHPHFLAFVPGPNNYVGVVADFLASGFNVFPTAWIAGAGAEQIELTTINWLKSMLGFPDSAEGLFVSGGSMANLTALTVARQAKLNNDIENAVVYFSDQTHFSVDRALKVLGFKHHQICRIETDEHLRISVSALKKQIKEDRTKGKKPFCVIANAGTTNCGAVDSLNELADLCNDEDVWLHADGSYGAPAILSEKGSAMLQGIHRADSLTLDPHKWLFQPYDVGCVLIRNSQYLSKTFRMMPEYIKDSETNVEGEINFGECGIELSRRFRALKVWLSFKVFGVAAFRQAIDHGIMLAEQVEAFLGKAKDWEVVTPAQLGIVTFRYIPSELASTDTINEINKKLVKEITHRGFAMLSTTELKEKVVIRLCSINPRTTTEEMLQIMMKIKALAEEVSISYPCVAE
# UniProt P31513, sequence (whole entry, looked up): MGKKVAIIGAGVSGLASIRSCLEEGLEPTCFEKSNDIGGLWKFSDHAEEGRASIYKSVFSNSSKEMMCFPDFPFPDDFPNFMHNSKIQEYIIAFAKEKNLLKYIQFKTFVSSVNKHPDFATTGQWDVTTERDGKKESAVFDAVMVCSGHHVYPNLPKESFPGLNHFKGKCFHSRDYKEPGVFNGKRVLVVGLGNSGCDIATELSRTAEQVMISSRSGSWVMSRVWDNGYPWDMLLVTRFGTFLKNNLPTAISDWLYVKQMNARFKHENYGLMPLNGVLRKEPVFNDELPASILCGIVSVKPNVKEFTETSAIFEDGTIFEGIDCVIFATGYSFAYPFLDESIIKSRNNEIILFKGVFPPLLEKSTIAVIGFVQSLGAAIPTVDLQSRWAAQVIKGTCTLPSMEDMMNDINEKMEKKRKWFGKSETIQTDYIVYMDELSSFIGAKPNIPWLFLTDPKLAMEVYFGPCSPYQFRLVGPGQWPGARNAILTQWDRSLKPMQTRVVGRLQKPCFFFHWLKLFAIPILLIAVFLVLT
# UniProt A4YI89, sequence (whole entry, looked up): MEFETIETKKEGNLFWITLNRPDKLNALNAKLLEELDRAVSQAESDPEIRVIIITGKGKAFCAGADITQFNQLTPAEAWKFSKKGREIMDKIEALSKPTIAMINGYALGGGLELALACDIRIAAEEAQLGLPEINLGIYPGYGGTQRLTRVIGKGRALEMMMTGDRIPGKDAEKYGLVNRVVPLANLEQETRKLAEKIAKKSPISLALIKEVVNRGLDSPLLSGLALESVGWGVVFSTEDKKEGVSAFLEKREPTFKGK
Molecule,substrate,matrix,pH,temperature,setting,together with,Vmax
B1 (UGT3A2 A344T),O=c1ccn([C@@H]2O[C@H](CO[P@@](=O)(O)O[P@@](=O)(O)O[C@H]3O[C@H](CO)[C@@H](O)[C@H](O)[C@H]3O)[C@@H](O)[C@H]2O)c(=O)[nH]1,,pH 7.4,37 °C,not purified,"1-OH-pyrene 16 µM, MgCl2 10 mM, alamethicin",0.000836 µmol/min/mg
B2 (protein),O=C(/C=C/c1ccc(O)cc1)c1c(O)cc(O)cc1O,,,,,,214 µmol/min/mg
B3 (enzyme C48S),Cc1nc2c(=O)[nH]c(=O)nc-2n(C[C@H](O)[C@H](O)[C@H](O)CO)c1C,,pH 7.2,37 °C,apparent,,0.027 µmol/min/mg
"Gcs (Leishmania donovani, UniProt Q67BG3)",Nc1ncnc2c1ncn2[C@@H]1O[C@H](COP(=O)(O)OP(=O)(O)OP(=O)(O)O)[C@@H](O)[C@H]1O,,,,apparent,"L-glutamate, L-cysteine, Mg2+",85.3 µM/min/mg
"UGT1A8 (Homo sapiens, UniProt Q9HAW9)",COc1cc2c(cc1CC=C(C)C)C(=O)C[C@@H](c1ccc(O)cc1)O2,,pH 7.4,37 °C,,,0.000685 µmol/min/mg
"enzyme (Vitis vinifera, UniProt F6H697)",O=C(O)Cc1cccc2ccccc12,,pH 8.6,25 °C,,,0.0752 µmol/min/mg
B4 (enzyme D382E),O=P(O)(O)O,,pH 6.5,25 °C,"apparent, not purified",,0.00168 µmol/min/mg
B5 (enzyme),NC(=O)c1ccc[n+]([C@@H]2O[C@H](COP(=O)(O)OP(=O)(O)OC[C@H]3O[C@@H](n4cnc5c(N)ncnc54)[C@H](OP(=O)(O)O)[C@@H]3O)[C@@H](O)[C@H]2O)c1,,pH 8.8,23 °C,cofactor varied,,7.55 µmol/min/mg
"HCT (Coleus scutellarioides, UniProt E8ZAP2)",O=C(O)C1=C[C@@H](O)[C@@H](O)[C@H](O)C1,,pH 8,,pseudo-first-order,p-coumaroyl CoA,38.3 µmol/min/mg
B6 (COMT),O=c1oc2c(O)c(O)ccc2cc1-c1nc2ccccc2s1,dog liver S9,pH 7.4,37 °C,,,0.00069 µmol/min/mg
B7 (protein),O=c1c(O)c(-c2ccc(O)cc2)oc2cc(O)cc(O)c12,,pH 7.5,35 °C,apparent,UDP-glucose,6.42e+07 µM/min/mg
"3-hydroxypropionyl-CoA dehydratase (Metallosphaera sedula, UniProt A4YI89)",CC(C)(COP(=O)(O)OP(=O)(O)OC[C@H]1O[C@@H](n2cnc3c(N)ncnc32)[C@H](O)[C@@H]1OP(=O)(O)O)[C@@H](O)C(=O)NCCC(=O)NCCSC(=O)CCO,,pH 6.5,65 °C,substrate made in situ,"ATP, CoA, NADPH",272 µmol/min/mg
B8 (UGT1A9),Cc1cc(=O)oc2cc(O)ccc12,,pH 7.4,37 °C,,,0.00365 µmol/min/mg
"protein (Danio rerio, UniProt A0EXC5)",C[C@H](CCCC(CO)CO)[C@H]1CC[C@H]2[C@@H]3[C@H](O)C[C@@H]4C[C@H](O)CC[C@]4(C)[C@H]3C[C@H](O)[C@]12C,,pH 7,28 °C,substrate inhibition,PAPS 14 µM,0.0228 µmol/min/mg
B9,N[C@@H](Cc1c[nH]c2c(Br)cccc12)C(=O)O,,pH 7,37 °C,not purified,PLP 40 µM,0.2 µmol/min/mg
"FMO3 (Homo sapiens, UniProt P31513)",CN1CCC[C@H]1c1cccnc1,HEK293 microsomes,,37 °C,not purified,NADPH regenerating system,1.12e-05 µmol/min/mg

# Some of these lines once more:
Molecule,substrate,matrix,pH,temperature,setting,together with,Vmax
B9,N[C@@H](Cc1c[nH]c2c(Br)cccc12)C(=O)O,,pH 7,37 °C,not purified,PLP 40 µM,0.2 µmol/min/mg
"FMO3 (Homo sapiens, UniProt P31513)",CN1CCC[C@H]1c1cccnc1,HEK293 microsomes,,37 °C,not purified,NADPH regenerating system,1.12e-05 µmol/min/mg
